Measured values collected from several papers.
Values joined by “and” are separate records of one study, mostly repeats; a detail may differ. ± marks the error that the study gave.

Compound | cell line | effect on | method | tested at | time | setting | CC50
CN(C(=O)[C@H](Cc1ccccc1)NC(=O)Cc1ccc2ccccc2c1)c1ccc(Cl)cc1 | TZM-GFP |  | XTT |  | 72 h |  | < 50 µM
CN(C)CCCN1c2ccccc2Sc2ccc(Cl)cc21 | HepaRG | cytotoxicity |  |  | 48 and 72 h |  | 10 to 50 µM
C[C@H]1CCC[C@H](O)CCCCCc2cc(O)cc(O)c2C(=O)O1 | BeWo cells |  |  |  | 24 h |  | 77.4 ± 6.4 µM
C/C(O)=C(\C#N)C(=O)Nc1ccc(C(F)(F)F)cc1 | Huh-7 |  | CPE |  | 7 days |  | > 100 µM
CC(C)[C@H](NC(=O)c1cc(Cl)ccc1O)C(=O)Nc1cc(C(F)(F)F)cc(C(F)(F)F)c1 | A549 |  |  |  |  |  | 7.14 µM
CCC(CC)COC(=O)[C@H](C)N[P@](=O)(OC[C@H]1O[C@@](C#N)(c2ccc3c(N)ncnn23)[C@H](O)[C@@H]1O)Oc1ccccc1 | Huh-7 |  |  |  | 7 days | uninfected, qPCR assay format | 13.4 µM
CC(C)C[C@H](NC(=O)c1cc(Cl)ccc1O)C(=O)Nc1ccc([N+](=O)[O-])cc1Cl | A549 |  |  |  |  |  | 8.03 µM
CC[C@H](C)[C@@H]1NC(=O)[C@H](CO)NC(=O)[C@H](CCC(=O)O)NC(=O)[C@H](CC(C)C)NC(=O)[C@H](CC(C)C)NC(=O)[C@H](CCCCN)NC(=O)[C@H](CCCCN)NC(=O)[C@H]([C@@H](C)CC)NC(=O)[C@H]([C@@H](C)CC)NC(=O)[C@H](CCCCN)NC(=O)[C@H](CCCCN)NC(=O)[C@H](Cc2ccc(O)cc2)NC(=O)[C@H](CC(C)C)NC(=O)[C@@H]2CCCN2C(=O)CNC(=O)CNC(=O)[C@@H](N)CSSC[C@@H](C(N)=O)NC(=O)CNC(=O)CNC(=O)[C@H]([C@@H](C)O)NC(=O)[C@H](CC(C)C)NC(=O)[C@H](CCC(N)=O)NC(=O)[C@H](C)NC(=O)[C@H](Cc2c[nH]c3ccccc23)NC(=O)[C@H](Cc2ccc(O)cc2)NC(=O)[C@H](Cc2c[nH]cn2)NC(=O)[C@H](CCC(=O)O)NC(=O)[C@H](Cc2ccccc2)NC(=O)[C@H]([C@@H](C)O)NC(=O)[C@H](CC(C)C)NC(=O)CNC(=O)CNC(=O)[C@H](CO)NC(=O)CNC(=O)CNC(=O)[C@H](CO)NC(=O)CNC(=O)CNC(=O)[C@H](CCCCN)NC(=O)[C@H](CCCCN)NC(=O)[C@H]([C@@H](C)CC)NC1=O | MDA-MB-231 |  | resazurin |  | 24 h |  | 29 ± 1.9 µM
NC(=O)c1nc(F)c[nH]c1=O | Vero 76 | cytotoxicity |  |  |  |  | 5860 µM and 3730 µM and > 4860 µM
CN(C)CC/C=C1/c2ccccc2Sc2ccc(Cl)cc21 | human cells |  |  | concentration not given | 2 days |  | > 20 µM
O=C(Nc1cc(C(F)(F)F)cc(C(F)(F)F)c1)c1cc(Cl)ccc1O | A549 |  |  |  |  |  | 1.81 µM
CC(CN1c2ccccc2Sc2ccccc21)N(C)C (stereo not drawn) | human cells |  |  | concentration not given | 2 days |  | > 20 µM
O=C(Nc1cc(F)cc(C(F)(F)F)c1)c1ccc(Cl)cc1O | A549 |  |  |  |  |  | 4.18 µM
CC[C@H](C)[C@H](NC(=O)[C@H](CCCCN)NC(=O)[C@H](CCCCN)NC(=O)[C@H](Cc1ccc(O)cc1)NC(=O)[C@H](CC(C)C)NC(=O)[C@@H]1CCCN1C(=O)[C@H](C)N)C(=O)N[C@H](C(=O)N[C@@H](CCCCN)C(=O)N[C@@H](CCCCN)C(=O)N[C@@H](CC(C)C)C(=O)N[C@@H](CC(C)C)C(=O)N[C@@H](CCC(=O)O)C(=O)N[C@@H](CO)C(N)=O)[C@@H](C)CC | MDA-MB-231 |  | resazurin |  | 24 h |  | > 32 µM
OC(c1cc(C(F)(F)F)nc2c(C(F)(F)F)cccc12)C1CCCCN1 (stereo not drawn) | Vero E6 uninfected | cell viability | CellTiter-Glo |  | 72 h |  | 8.78 µM
CC[C@H](C)[C@H](NC(=O)[C@H](CCCCN)NC(=O)[C@H](CCCCN)NC(=O)[C@H](Cc1ccc(O)cc1)NC(=O)[C@H](CC(C)C)NC(=O)[C@@H]1CCCN1C(=O)[C@H](C)NC(=O)CNC(=O)CNC(=O)[C@H](CO)NC(=O)CNC(=O)CNC(=O)[C@H](CO)NC(=O)[C@H](CCC(=O)O)NC(=O)[C@H](CC(C)C)NC(=O)[C@H](CC(C)C)NC(=O)[C@H](CCCCN)NC(=O)[C@H](CCCCN)NC(=O)[C@@H](NC(=O)[C@@H](NC(=O)[C@H](CCCCN)NC(=O)[C@H](CCCCN)NC(=O)[C@H](Cc1ccc(O)cc1)NC(=O)[C@H](CC(C)C)NC(=O)[C@@H]1CCCN1C(=O)[C@H](C)NC(=O)[C@H](CCC(N)=O)NC(=O)[C@@H](N)CC(C)C)[C@@H](C)CC)[C@@H](C)CC)C(=O)N[C@H](C(=O)N[C@@H](CCCCN)C(=O)N[C@@H](CCCCN)C(=O)N[C@@H](CC(C)C)C(=O)N[C@@H](CC(C)C)C(=O)N[C@@H](CCC(=O)O)C(=O)N[C@@H](CO)C(N)=O)[C@@H](C)CC | K562 |  | resazurin |  | 24 h |  | 4.4 ± 0.1 µM
CCC(C)[C@H](NC(=O)c1cc(Cl)ccc1O)C(=O)Nc1ccc([N+](=O)[O-])cc1Cl (stereo partly drawn) | A549 |  |  |  |  |  | 5.2 µM
CCCC(=O)OCSc1ccccc1C(=O)NCCC(N)=O | human monocytes/macrophages |  |  |  | 7 days |  | > 1500 µM
C=C1C(=O)O[C@@H]2[C@H]1CC[C@H](C)[C@@]1(O)C=CC(=O)[C@@]21C | BALB/c mouse splenocytes |  | propidium iodide flow cytometry |  | 48 h | 10% fetal calf serum | 4.4 ± 2.93 µM
CC(CN(C)C)CN1c2ccccc2Sc2ccccc21 (stereo not drawn) | human cells |  |  | concentration not given | 2 (unit not given) |  | 13.8 µM
CN(C)CCCN1c2ccccc2CCc2ccc(Cl)cc21 | Vero E6, HeLa, HEK293T, Huh7.5 |  | nuclei count |  | 16 h | mean of four cell lines | > 50 µM
